{"data": "Measurements collected from several papers", "sample": "plasma", "note": "Lines come from different studies, so protocols differ."}
{"SMILES": "CC(=O)N[C@H]1CC[C@H](NC(=O)CN2CCN(c3nncc(-c4ccc(C)cc4)n3)CC2)CC1", "system": "female human", "conditions": "oral, 100 mg, single dose, fasted, healthy volunteers", "half-life [min]": 744}
{"SMILES": "O=C(O)COC[C@H]1CC[C@H](COC(=O)N(c2ccccc2)c2ccc(Cl)cc2)CC1", "system": "human", "conditions": "oral, 50 µg, single dose, healthy volunteers", "half-life [min]": 1240}
{"SMILES": "C#C[C@]1(CO)O[C@@H](n2cnc3c(N)nc(F)nc32)C[C@@H]1O", "system": "human", "conditions": "oral, 30 mg, single dose, fed", "half-life [min]": 3820}
{"SMILES": "CC(C)(/C=C(\\C#N)C(=O)N1CCC[C@@H](n2nc(-c3ccc(Oc4ccccc4)cc3F)c3c(N)ncnc32)C1)N1CCN(C2COC2)CC1", "system": "human", "conditions": "oral, 100 mg, single dose, healthy volunteers", "half-life [min]": 108}
{"SMILES": "CCCOc1ccc([C@H]2CNC(=O)N2c2ccc3[nH]cnc3c2)cc1", "system": "human", "conditions": "oral, 800 mg, multiple doses, twice daily, fasted", "half-life [min]": 460}
{"SMILES": "CCc1cnn2c(NCc3ccc[n+]([O-])c3)cc(N3CCCC[C@H]3CCO)nc12", "system": "human", "conditions": "intravenous, 9 mg/m², patients", "half-life [min]": 101}
{"SMILES": "O=C(c1nc2n(n1)[C@H](c1ccccc1)C[C@@H]2F)C1CC1", "system": "human", "conditions": "oral, 25 mg, single dose, fasted, healthy volunteers", "half-life [min]": 624}
{"SMILES": "C[C@@H]1CCC[C@H](n2cnc(-c3cc(Cl)ccc3-n3cc(Cl)nn3)cc2=O)c2cc(ccn2)-c2c(cnn2C(F)F)NC1=O", "system": "human", "conditions": "oral, 200 mg, single dose, fasted, healthy volunteers", "half-life [min]": 630}
{"SMILES": "COc1cccc(-c2ccc(NC(=O)C3=C(C(=O)O)CCC3)c(F)c2)c1", "system": "male human", "conditions": "oral, 30 mg, multiple doses, once daily", "half-life [min]": 1820}
{"SMILES": "C=CC(=O)Nc1cc(Nc2ncc(C(=O)OC(C)C)c(-c3cn(C)c4ccccc34)n2)c(OC)cc1N(C)CCN(C)C", "system": "human", "conditions": "oral, 120 mg, single dose, fasted, healthy volunteers", "half-life [min]": 1100}
{"SMILES": "O=C1CCc2cc(OC[C@H](O)CN3CCN(c4ccc(C(F)(F)F)cc4)CC3)ccc2N1", "system": "human", "conditions": "intravenous, 5 mg, single dose, healthy volunteers, infusion", "half-life [min]": 1680}
{"SMILES": "CC(C)(/C=C(\\C#N)C(=O)N1CCC[C@@H](n2nc(-c3ccc(Oc4ccccc4)cc3F)c3c(N)ncnc32)C1)N1CCN(C2COC2)CC1", "system": "male human", "conditions": "oral, 400 mg, single dose, tablet", "half-life [min]": 192}
{"SMILES": "C[C@H](N)C(=O)N1C[C@H](CCCB(O)O)[C@](N)(C(=O)O)C1", "system": "human", "conditions": "oral, 150 mg, single dose, patients", "half-life [min]": 342}
{"SMILES": "Cc1[nH]c2ccccc2c1CCNCc1ccc(/C=C/C(=O)NO)cc1", "system": "human", "conditions": "oral, 20 mg, single dose, fed", "half-life [min]": 822}
{"SMILES": "CNC(=O)c1ccccc1Sc1ccc2c(/C=C/c3ccccn3)n[nH]c2c1", "system": "human", "conditions": "oral, 10 mg, single dose, fed", "half-life [min]": 354}
{"SMILES": "Nc1cc(F)ccc1NC(=O)c1ccc(CNC(=O)/C=C/c2cccnc2)cc1", "system": "human", "conditions": "oral, 40 mg, patients", "half-life [min]": 1160}
{"SMILES": "CS(=O)(=O)n1cc2c(n1)CN([C@H]1CO[C@H](c3cc(F)ccc3F)[C@@H](N)C1)C2", "system": "male human", "conditions": "oral, 100 mg, single dose, fasted, healthy volunteers", "half-life [min]": 2600}
{"SMILES": "C=CC(=O)Nc1cc(Nc2ncc(C(=O)OC(C)C)c(-c3cn(C)c4ccccc34)n2)c(OC)cc1N(C)CCN(C)C", "system": "human", "conditions": "oral, 160 mg", "half-life [min]": 1680}
{"SMILES": "CNc1nc(Nc2ccc(-n3cnc(C)n3)c(OC)c2)nc2c1CC[C@H]2c1ccc(F)cc1", "system": "human", "conditions": "oral, 1200 mg, single dose, healthy volunteers", "half-life [min]": 1320}
{"SMILES": "Cn1cc(-c2ccc(S(=O)(=O)[C@@H]3C[C@@H](C(=O)NC4(C#N)CC4)N(C(=O)C4(C(F)(F)F)CC4)C3)c(C(F)(F)F)c2)cn1", "system": "human", "conditions": "oral, 10 mg, single dose, fasted, healthy volunteers", "half-life [min]": "~480"}
{"SMILES": "CNCc1ccc(-c2[nH]c3cc(F)cc4c3c2CCNC4=O)cc1", "system": "human", "conditions": "oral, 600 mg, single dose, fasted", "half-life [min]": 1120}
{"SMILES": "CC#CC(=O)N[C@H]1CCCN(c2c(F)cc(C(N)=O)c3[nH]c(C)c(C)c23)C1", "system": "human", "conditions": "oral, 0.3 mg, single dose", "half-life [min]": 73.2}
{"SMILES": "Nc1ccc(-c2nc([C@H]3CCc4cc(-c5cc(Cl)ccc5-n5cnnn5)cc(=O)n43)c(F)[nH]2)c(F)n1", "system": "human", "conditions": "oral, 5 mg, single dose, fasted", "half-life [min]": 1070}
{"note": "Repeated from above:"}
{"SMILES": "CNC(=O)c1ccccc1Sc1ccc2c(/C=C/c3ccccn3)n[nH]c2c1", "system": "human", "conditions": "oral, 10 mg, single dose, fed", "half-life [min]": 354}
{"SMILES": "CC#CC(=O)N[C@H]1CCCN(c2c(F)cc(C(N)=O)c3[nH]c(C)c(C)c23)C1", "system": "human", "conditions": "oral, 0.3 mg, single dose", "half-life [min]": 73.2}
